Assay results from different studies.
“And” joins repeats or separate records; there may be more than shown. ± gives the spread as reported.
UniProt P51575, sequence (whole entry, unmodified, looked up): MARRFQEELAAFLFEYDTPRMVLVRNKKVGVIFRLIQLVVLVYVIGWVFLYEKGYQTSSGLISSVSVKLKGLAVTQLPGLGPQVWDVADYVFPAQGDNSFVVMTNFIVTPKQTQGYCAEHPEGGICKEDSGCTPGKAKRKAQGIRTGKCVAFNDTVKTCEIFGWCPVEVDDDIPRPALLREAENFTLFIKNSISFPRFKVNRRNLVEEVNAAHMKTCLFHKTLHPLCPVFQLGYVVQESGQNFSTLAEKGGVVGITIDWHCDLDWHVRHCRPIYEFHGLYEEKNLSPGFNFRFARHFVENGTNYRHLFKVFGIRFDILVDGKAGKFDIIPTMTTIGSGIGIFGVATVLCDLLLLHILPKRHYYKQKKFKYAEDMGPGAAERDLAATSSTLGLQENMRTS
UniProt O75762, sequence (whole entry, looked up): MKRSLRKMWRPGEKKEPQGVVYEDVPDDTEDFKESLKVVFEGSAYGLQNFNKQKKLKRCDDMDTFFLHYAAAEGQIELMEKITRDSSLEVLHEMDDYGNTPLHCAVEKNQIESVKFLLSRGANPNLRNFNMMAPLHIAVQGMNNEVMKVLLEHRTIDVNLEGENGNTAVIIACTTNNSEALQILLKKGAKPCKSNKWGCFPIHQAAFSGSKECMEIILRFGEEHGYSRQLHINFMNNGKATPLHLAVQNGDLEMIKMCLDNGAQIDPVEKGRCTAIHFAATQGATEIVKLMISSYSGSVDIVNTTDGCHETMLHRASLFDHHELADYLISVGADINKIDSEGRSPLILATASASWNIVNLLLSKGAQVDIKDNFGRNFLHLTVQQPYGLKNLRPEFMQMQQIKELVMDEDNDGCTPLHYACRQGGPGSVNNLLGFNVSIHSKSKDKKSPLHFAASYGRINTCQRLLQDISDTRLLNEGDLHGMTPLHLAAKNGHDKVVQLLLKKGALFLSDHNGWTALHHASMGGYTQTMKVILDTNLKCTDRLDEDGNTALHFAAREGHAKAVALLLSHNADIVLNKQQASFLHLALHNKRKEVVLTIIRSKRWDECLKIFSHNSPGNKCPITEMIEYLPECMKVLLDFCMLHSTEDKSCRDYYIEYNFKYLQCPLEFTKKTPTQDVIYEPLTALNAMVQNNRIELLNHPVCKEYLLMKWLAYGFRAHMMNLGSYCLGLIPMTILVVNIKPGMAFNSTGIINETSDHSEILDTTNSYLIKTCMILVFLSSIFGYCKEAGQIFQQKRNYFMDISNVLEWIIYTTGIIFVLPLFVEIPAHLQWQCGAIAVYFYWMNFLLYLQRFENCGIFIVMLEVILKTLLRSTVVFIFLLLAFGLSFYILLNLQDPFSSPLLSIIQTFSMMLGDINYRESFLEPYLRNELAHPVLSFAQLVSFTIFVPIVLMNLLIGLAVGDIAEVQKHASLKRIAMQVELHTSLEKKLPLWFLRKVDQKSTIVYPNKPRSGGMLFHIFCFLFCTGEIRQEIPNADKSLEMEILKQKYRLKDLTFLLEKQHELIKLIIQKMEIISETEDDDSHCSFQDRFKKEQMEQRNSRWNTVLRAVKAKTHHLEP
UniProt Q07011, sequence (whole entry, looked up): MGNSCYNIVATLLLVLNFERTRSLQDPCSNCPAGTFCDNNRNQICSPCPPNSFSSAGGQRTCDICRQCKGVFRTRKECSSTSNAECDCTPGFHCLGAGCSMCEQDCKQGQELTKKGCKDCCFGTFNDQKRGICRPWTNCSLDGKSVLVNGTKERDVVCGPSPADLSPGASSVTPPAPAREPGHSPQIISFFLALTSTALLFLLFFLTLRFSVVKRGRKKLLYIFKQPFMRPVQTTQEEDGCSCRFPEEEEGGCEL
UniProt P41595, sequence (whole entry, looked up): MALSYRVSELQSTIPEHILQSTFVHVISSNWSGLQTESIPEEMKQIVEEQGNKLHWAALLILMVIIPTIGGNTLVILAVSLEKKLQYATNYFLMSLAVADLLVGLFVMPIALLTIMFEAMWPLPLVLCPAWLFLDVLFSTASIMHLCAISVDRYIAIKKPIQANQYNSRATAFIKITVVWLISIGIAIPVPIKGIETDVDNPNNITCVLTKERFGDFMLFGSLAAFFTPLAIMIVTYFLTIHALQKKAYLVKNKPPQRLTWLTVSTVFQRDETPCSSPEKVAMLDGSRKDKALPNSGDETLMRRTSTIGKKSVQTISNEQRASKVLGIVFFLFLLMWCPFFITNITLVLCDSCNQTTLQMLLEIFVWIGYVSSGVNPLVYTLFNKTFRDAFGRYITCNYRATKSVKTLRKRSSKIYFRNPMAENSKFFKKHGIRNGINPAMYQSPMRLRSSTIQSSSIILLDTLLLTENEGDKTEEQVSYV
UniProt P0A8V2, sequence (whole entry, looked up): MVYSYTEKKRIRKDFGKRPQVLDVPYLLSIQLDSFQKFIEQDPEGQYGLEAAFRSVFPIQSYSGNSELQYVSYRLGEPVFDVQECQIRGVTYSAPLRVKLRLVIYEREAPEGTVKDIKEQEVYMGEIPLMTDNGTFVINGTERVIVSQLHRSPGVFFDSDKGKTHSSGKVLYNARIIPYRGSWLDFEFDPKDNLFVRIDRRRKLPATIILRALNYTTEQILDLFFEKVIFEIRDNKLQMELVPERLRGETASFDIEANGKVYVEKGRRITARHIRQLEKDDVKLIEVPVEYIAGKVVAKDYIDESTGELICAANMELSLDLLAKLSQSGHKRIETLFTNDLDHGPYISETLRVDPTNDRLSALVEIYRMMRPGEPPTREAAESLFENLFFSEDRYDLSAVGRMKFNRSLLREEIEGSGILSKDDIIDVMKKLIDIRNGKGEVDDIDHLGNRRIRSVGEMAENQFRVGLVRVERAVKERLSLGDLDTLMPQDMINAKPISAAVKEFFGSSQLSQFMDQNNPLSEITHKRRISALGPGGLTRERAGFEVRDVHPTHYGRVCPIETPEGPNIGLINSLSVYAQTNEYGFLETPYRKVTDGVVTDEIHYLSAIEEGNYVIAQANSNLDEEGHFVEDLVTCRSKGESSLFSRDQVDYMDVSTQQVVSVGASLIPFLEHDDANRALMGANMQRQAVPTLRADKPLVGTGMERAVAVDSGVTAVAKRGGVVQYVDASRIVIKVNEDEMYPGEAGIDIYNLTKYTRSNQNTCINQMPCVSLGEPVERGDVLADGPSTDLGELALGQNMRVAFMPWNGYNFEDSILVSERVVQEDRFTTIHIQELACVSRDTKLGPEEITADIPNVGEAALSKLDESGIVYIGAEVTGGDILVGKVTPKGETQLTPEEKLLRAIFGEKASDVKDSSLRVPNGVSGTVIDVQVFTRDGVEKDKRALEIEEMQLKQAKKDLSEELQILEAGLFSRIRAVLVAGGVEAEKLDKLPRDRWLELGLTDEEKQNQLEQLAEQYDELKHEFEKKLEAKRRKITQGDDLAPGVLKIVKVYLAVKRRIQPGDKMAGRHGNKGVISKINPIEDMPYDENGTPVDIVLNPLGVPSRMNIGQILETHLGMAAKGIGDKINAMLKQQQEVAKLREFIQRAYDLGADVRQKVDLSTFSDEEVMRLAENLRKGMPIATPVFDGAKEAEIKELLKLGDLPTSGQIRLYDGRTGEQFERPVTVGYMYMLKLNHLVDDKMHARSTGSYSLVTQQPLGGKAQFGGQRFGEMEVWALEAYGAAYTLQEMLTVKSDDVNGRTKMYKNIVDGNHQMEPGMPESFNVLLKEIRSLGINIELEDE
UniProt P22736, sequence (whole entry, looked up): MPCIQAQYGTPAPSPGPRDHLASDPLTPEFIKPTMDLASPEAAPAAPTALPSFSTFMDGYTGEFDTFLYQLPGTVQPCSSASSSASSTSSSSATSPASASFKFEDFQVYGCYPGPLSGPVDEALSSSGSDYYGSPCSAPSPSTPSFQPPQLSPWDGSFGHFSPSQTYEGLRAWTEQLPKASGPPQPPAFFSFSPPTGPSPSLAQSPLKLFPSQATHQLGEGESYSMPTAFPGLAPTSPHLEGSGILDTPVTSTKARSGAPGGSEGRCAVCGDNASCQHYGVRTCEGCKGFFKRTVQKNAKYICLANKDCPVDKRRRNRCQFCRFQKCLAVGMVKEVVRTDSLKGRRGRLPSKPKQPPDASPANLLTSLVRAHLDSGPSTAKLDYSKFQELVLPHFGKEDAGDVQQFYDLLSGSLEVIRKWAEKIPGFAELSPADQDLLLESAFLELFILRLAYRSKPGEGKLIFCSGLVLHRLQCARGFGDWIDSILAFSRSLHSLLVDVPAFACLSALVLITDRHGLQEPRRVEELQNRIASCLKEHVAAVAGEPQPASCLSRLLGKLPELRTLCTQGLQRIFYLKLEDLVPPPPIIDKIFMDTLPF
UniProt P31641, sequence (whole entry, unmodified, looked up): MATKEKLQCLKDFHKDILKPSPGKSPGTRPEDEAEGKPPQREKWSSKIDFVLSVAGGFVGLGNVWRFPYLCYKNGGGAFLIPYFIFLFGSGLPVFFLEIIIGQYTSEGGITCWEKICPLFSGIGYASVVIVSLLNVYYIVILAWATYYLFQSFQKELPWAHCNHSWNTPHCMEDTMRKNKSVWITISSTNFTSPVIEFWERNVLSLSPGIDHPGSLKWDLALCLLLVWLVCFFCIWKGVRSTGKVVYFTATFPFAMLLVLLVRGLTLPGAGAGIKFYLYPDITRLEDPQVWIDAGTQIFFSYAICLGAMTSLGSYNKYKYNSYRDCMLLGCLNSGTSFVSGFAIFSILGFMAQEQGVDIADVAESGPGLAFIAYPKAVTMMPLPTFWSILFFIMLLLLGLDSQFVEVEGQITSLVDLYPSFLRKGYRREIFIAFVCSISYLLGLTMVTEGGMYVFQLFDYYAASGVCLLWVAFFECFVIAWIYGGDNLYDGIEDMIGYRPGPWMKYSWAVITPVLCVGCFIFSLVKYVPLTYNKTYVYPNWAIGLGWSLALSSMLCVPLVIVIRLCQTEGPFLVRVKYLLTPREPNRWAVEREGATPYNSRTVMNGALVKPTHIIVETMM

SMILES	target	test	system	setting	how to read	endpoint	result
CC(C)C(=O)Nc1n[nH]c2cc(-c3cccc(NS(=O)(=O)C4CC4)c3)ccc12	PIP5K1C (Homo sapiens, UniProt O60331)	ADP-Glo		508 pM, with: 10 µM ATP		ADP produced	2.8 µM
[H]/N=C(/N)NCC(=O)O	SLC6A6 (Homo sapiens, UniProt P31641, L306A)	binding, microscale thermophoresis		7.81 µM, room temperature, with: 50 nM labelled protein	higher = more binding	normalised MST signal	0.0065
Cc1ncsc1-c1ccc(CNC(=O)[C@@H]2C[C@@H](O)CN2C(=O)[C@@H](NC(=O)C2(F)CC2)C(C)(C)C)c(OCCOc2ccc(CN3CCN(c4cc(-c5ccccc5O)nnc4N)CC3)cc2)c1	Protein polybromo-1, BD5 (PBRM1, Homo sapiens, UniProt Q86U86)	ternary complex binding, TR-FRET competition		with: VCB complex		cooperativity factor alpha	12
CCCC[C@@H]1NC(=O)[C@H](Cc2ccc(O)cc2)NC(=O)[C@@H]2CCCN2C(=O)[C@H](CC(=O)O)NC(=O)[C@H](C)NC(=O)[C@H](Cc2ccccc2)NC(=O)[C@@H]2CSCCC(=O)N3CN(CN(C3)C(=O)CCSC[C@@H](C(=O)N[C@@H](C)C(N)=O)NC1=O)C(=O)CCSC[C@H](NC(C)=O)C(=O)N[C@@H](CC(C)(C)C)C(=O)N1CCC[C@H]1C(=O)N[C@@H](CCC(=O)O)C(=O)N[C@H](CCCCNC(=O)CCc1cn(CCOCCOCCOCCOCCOCCOCCOCCOCCOCCOCCNC(=O)CCOCCN(CCOCCC(=O)NCCOCCOCCOCCOCCOCCOCCOCCOCCOCCOCCn3cc(CCC(=O)NCCCC[C@H]4NC(=O)[C@H](CCC(=O)O)NC(=O)[C@@H]5CCCN5C(=O)[C@H](CC(C)(C)C)NC(=O)[C@@H](NC(C)=O)CSCCC(=O)N5CN6CN(C5)C(=O)CCSC[C@H](NC(=O)[C@H](Cc5ccc(O)cc5)NC(=O)[C@@H]5CCCN5C4=O)C(=O)N[C@@H](Cc4ccccc4)C(=O)N[C@@H](C)C(=O)N[C@@H](CC(=O)O)C(=O)N4CCC[C@H]4C(=O)N[C@@H](Cc4ccc(O)cc4)C(=O)N[C@@H](CCCC)C(=O)N[C@H](C(=O)N[C@@H](C)C(N)=O)CSCCC6=O)nn3)CCOCCC(=O)NCCOCCOCCOCCOCCOCCOCCOCCOCCOCCOCCn3cc(CCC(=O)N[C@H]4CSCCC(=O)N5CN6CN(C5)C(=O)CCSC[C@H](NC(=O)[C@@H](CC(=O)O)NC(=O)[C@H](Cc5cccc7ccccc57)NC(=O)[C@@H]5CCCN5C4=O)C(=O)N[C@@H](CCSC)C(=O)N[C@@H](CCCCNC(=N)N)C(=O)N[C@@H](CC(=O)O)C(=O)N[C@@H](Cc4c[nH]c5ccccc45)C(=O)N[C@@H](CO)C(=O)N[C@@H]([C@@H](C)O)C(=O)N4CCC[C@H]4C(=O)N4C[C@H](O)C[C@H]4C(=O)N[C@@H](Cc4c[nH]c5ccccc45)C(=O)N[C@H](C(N)=O)CSCCC6=O)nn3)nn1)C(=O)N1CCC[C@H]1C(=O)N[C@@H](Cc1ccc(O)cc1)C(=O)N2	Tumor necrosis factor receptor superfamily member 9/Nectin-4 (Homo sapiens, UniProt Q07011+Q96NY8)	reporter gene, agonist	HT-1376 coculture with reporter cells		baseline: background	Emax	40 fold
C[C@H]1O[C@@H](O[C@H]2CC[C@@]3(C)[C@@H](CC[C@]4(C)[C@@H]3C=C[C@]35OC[C@@]6(CCC(C)(C)C[C@H]63)[C@@H](O)C[C@]54C)[C@]2(C)CO)[C@H](O)[C@@H](O[C@@H]2O[C@H](CO)[C@@H](O)[C@H](O)[C@H]2O)[C@H]1O	SIRT1 (Homo sapiens, UniProt Q96EB6)	binding, microscale thermophoresis		150 nM		MST normalised fluorescence	885 a.u.
[Ca]	TRPA1 (Homo sapiens, UniProt O75762)	ion current, two-electrode voltage clamp	Xenopus oocytes	100 µM, -80 mV, with: extracellular Ca2+	baseline: current before Ca2+ addition	potentiation	27 fold change and 1.84 fold change and 6.7 fold change and 5.85 fold change and 11.3 fold change and 0.868 fold change
C[C@@H](c1ccc(-n2cnc3c(N)ncnc32)cc1)N1CCc2nn(C)c(Cc3ccccc3)c2C1=O	Non-receptor tyrosine-protein kinase TYK2, JH2 pseudokinase domain (TYK2, Homo sapiens, UniProt P29597)	KINOMEscan		0.1 µM	baseline: DMSO control	remaining binding	74%
Nc1ccn([C@H]2C[C@H](O)[C@@H](COP(=O)(O)OP(=O)(O)OP(=O)(O)O)O2)c(=O)n1	DNA-directed RNA polymerase subunit beta' / DNA-directed RNA polymerase subunit beta (rpoC/rpoB, Escherichia coli, UniProt P0A8T7+P0A8V2)	RNA extension, denaturing gel	Escherichia coli, elongation complex, 6-MI template	5 µM, 10 min, 25 °C		incorporation efficiency	82%
CC(C)[C@@H](Nc1nc(Cl)nc2c1ncn2[C@H]1[C@H](O)[C@H](O)[C@]2(C#N)C[C@H]12)C1CC1	HTR2B (Homo sapiens, UniProt P41595)	radioligand binding		with: [3H]LSD	baseline: 4′-cyano over 4′-CH2OH analogue	affinity gain	7.7 fold
Nc1ncnc2c1ncn2[C@@H]1O[C@H](COP(=O)(O)CP(=O)(O)OP(=O)(O)O)[C@@H](O)[C@H]1O	P2X purinoceptor 1 (P2RX1, Homo sapiens, UniProt P51575, F188L)	calcium influx		100 nM	baseline: ionomycin response	calcium influx	37.1% and 44.2% and 56.5%
C=CC(=O)N1CCC(COCC(=O)N2CCN(c3nc(-c4cnc(N)nc4C(F)F)nc(N4CCOC[C@@H]4C)n3)CC2)CC1	AKT3 (Homo sapiens, UniProt Q9Y243)	KINOMEscan		1 µM		remaining binding	100%
COc1cccc2c(Nc3ccc4[nH]c(C(=O)N/N=C/c5ccc(SC)cc5)cc4c3)cc(C)nc12	Nuclear receptor subfamily 4 group A member 1 (NR4A1, Homo sapiens, UniProt P22736)	reporter gene, Gal4 hybrid reporter		1 µM	baseline: vehicle	activation	1.01 ± 0.06 fold

For quick reference, copied from above:
SMILES	target	test	system	setting	how to read	endpoint	result
C=CC(=O)N1CCC(COCC(=O)N2CCN(c3nc(-c4cnc(N)nc4C(F)F)nc(N4CCOC[C@@H]4C)n3)CC2)CC1	AKT3 (Homo sapiens, UniProt Q9Y243)	KINOMEscan		1 µM		remaining binding	100%
